Published values gathered from unrelated publications.
Lines come from different studies, so protocols differ.

CC[C@H](C)[C@H](NC(=O)CN)C(=O)N[C@@H](CCCCN)C(=O)N[C@@H](CCCCN)C(=O)N[C@@]1(C)CCCC=CCCC[C@@](C)(C(=O)N[C@@H](CCCCN)C(=O)N[C@@H](CCCCN)C(=O)N[C@@H](Cc2ccccc2)C(=O)N[C@H](C(=O)N[C@@H](CCCCN)C(=O)N[C@@H](C)C(=O)N[C@@H](Cc2ccccc2)C(=O)N[C@@H](CCCCN)C(N)=O)C(C)C)NC(=O)[C@H](CO)NC(=O)[C@H](CCCCN)NC(=O)[C@H](CC(C)C)NC1=O
retention time (UPLC; TFA water/acetonitrile gradient; longer = more hydrophobic): 2.31 min

CCCC[C@H](NC(=O)[C@@H](NC(=O)[C@H](CCC(=O)O)NC(=O)CNC(=O)[C@@H](NC(=O)[C@H](Cc1ccccc1)NC(=O)[C@H](C)NC(=O)[C@]1(C)CCCC=CCCC[C@](C)(NC(=O)[C@H](C)NC(=O)[C@H](CO)NC(=O)[C@H](Cc2c[nH]cn2)NC(=O)[C@H](CC(C)C)NC(=O)[C@H](Cc2ccccc2)NC(=O)[C@H](CCCCN)NC(=O)CNC(=O)[C@@H](NC(=O)CN)[C@@H](C)CC)C(=O)N[C@@H](CCCCN)C(=O)N[C@@H](Cc2ccccc2)C(=O)NCC(=O)N1)C(C)C)[C@@H](C)CC)C(=O)N[C@@H](CC(N)=O)C(=O)N[C@@H](CO)C(N)=O
retention time (HPLC C18 column): 19 min

CC[C@H](C)[C@H](NC(=O)CN)C(=O)N[C@@H](CCCCN)C(=O)N[C@@H](CCCCN)C(=O)N[C@@H](Cc1ccccc1)C(=O)N[C@@H](CC(C)C)C(=O)N[C@@H](CCCCN)C(=O)N[C@@H](CO)C(=O)N[C@@H](C)C(=O)N[C@@H](CCCCN)C(=O)N[C@@H](CCCCN)C(=O)N[C@@H](Cc1ccccc1)C(=O)N[C@H](C(=O)N[C@@H](CCCCN)C(=O)N[C@@H](C)C(=O)N[C@@H](Cc1ccccc1)C(=O)N[C@@H](CCCCN)C(N)=O)C(C)C
retention time (UPLC; TFA water/acetonitrile gradient; longer = more hydrophobic): 1.86 min

CC[C@H](C)[C@H](NC(=O)[C@H](Cc1ccc(O)cc1)NC(=O)[C@@H](N)CC(C)C)C(=O)N[C@@H](CCC(N)=O)C(=O)N[C@@H](CC(N)=O)C(=O)N[C@@H](CC(C)C)C(=O)O
retention time (RP-HPLC C18): 15.9 min

CCCC[C@H](NC(=O)[C@@H](NC(=O)[C@H](CCC(=O)O)NC(=O)CNC(=O)[C@@H](NC(=O)[C@H](Cc1ccccc1)NC(=O)[C@H](C)NC(=O)[C@H](CCCCN)NC(=O)CNC(=O)[C@H](Cc1ccccc1)NC(=O)[C@H](CCCCN)NC(=O)[C@H](CCCCN)NC(=O)[C@H](C)NC(=O)[C@H](CO)NC(=O)[C@]1(C)CCCC=CCCC[C@](C)(NC(=O)[C@@H](NC(=O)CN)[C@@H](C)CC)C(=O)N[C@@H](CCCCN)C(=O)N[C@@H](Cc2ccccc2)C(=O)N[C@@H](CC(C)C)C(=O)N1)C(C)C)[C@@H](C)CC)C(=O)N[C@@H](CC(N)=O)C(=O)N[C@@H](CO)C(N)=O
retention time (HPLC C18 column): 13.5 min

CC(C)C[C@H](NC(=O)[C@H](Cc1c[nH]c2ccccc12)NC(=O)[C@H](CCC(N)=O)NC(=O)[C@H](CCC(N)=O)NC(=O)[C@H](CC(N)=O)NC(=O)[C@@H](N)CC(N)=O)C(=O)O
retention time (RP-HPLC C18): 15.9 min

CC[C@H](C)[C@@H]1NC(=O)[C@](C)(NC(=O)CN)CCCCCCC=CCCC[C@@](C)(C(=O)N[C@@H](CCCCN)C(=O)N[C@@H](CCCCN)C(=O)N[C@@H](Cc2ccccc2)C(=O)N[C@H](C(=O)N[C@@H](CCCCN)C(=O)N[C@@H](C)C(=O)N[C@@H](Cc2ccccc2)C(=O)N[C@@H](CCCCN)C(N)=O)C(C)C)NC(=O)[C@H](CO)NC(=O)[C@H](CCCCN)NC(=O)[C@H](CC(C)C)NC(=O)[C@H](Cc2ccccc2)NC(=O)[C@H](CCCCN)NC(=O)[C@H](CCCCN)NC1=O
retention time (UPLC; TFA water/acetonitrile gradient; longer = more hydrophobic): 2.45 min

CC[C@H](C)[C@H](NC(=O)[C@H](CC(N)=O)NC(=O)[C@@H](N)CC(N)=O)C(=O)N[C@@H](CCC(N)=O)C(=O)N[C@@H](Cc1c[nH]c2ccccc12)C(=O)N[C@@H](CC(C)C)C(=O)O
retention time (RP-HPLC C18): 16.6 min

CCCC[C@H](NC(=O)[C@@H](NC(=O)[C@]1(C)CCCC=CCCC[C@](C)(NC(=O)[C@H](CCCCN)NC(=O)CNC(=O)[C@H](Cc2ccccc2)NC(=O)[C@H](CCCCN)NC(=O)[C@H](CCCCN)NC(=O)[C@H](C)NC(=O)[C@H](CO)NC(=O)[C@H](Cc2c[nH]cn2)NC(=O)[C@H](CC(C)C)NC(=O)[C@H](Cc2ccccc2)NC(=O)[C@H](CCCCN)NC(=O)CNC(=O)[C@@H](NC(=O)CN)[C@@H](C)CC)C(=O)N[C@@H](Cc2ccccc2)C(=O)N[C@@H](C(C)C)C(=O)NCC(=O)N1)[C@@H](C)CC)C(=O)N[C@@H](CC(N)=O)C(=O)N[C@@H](CO)C(N)=O
retention time (HPLC C18 column): 13.2 min

CC(C)C[C@H](NC(=O)CNC(=O)[C@H](CCCNC(=N)N)NC(=O)[C@@H](N)CC(=O)O)C(=O)N[C@@H](Cc1ccccc1)C(=O)N[C@@H](CC(=O)O)C(=O)N[C@@H](Cc1ccccc1)C(=O)N[C@@H](CC(C)C)C(=O)NCC(=O)N[C@@H](CCCCN)C(=O)N[C@@H](CCCCN)C(=O)N[C@@H](CCCCN)C(N)=O
retention time (RP-HPLC; C18 column): 15.1 min

Some of these lines once more:
CC[C@H](C)[C@H](NC(=O)[C@H](CC(N)=O)NC(=O)[C@@H](N)CC(N)=O)C(=O)N[C@@H](CCC(N)=O)C(=O)N[C@@H](Cc1c[nH]c2ccccc12)C(=O)N[C@@H](CC(C)C)C(=O)O
retention time (RP-HPLC C18): 16.6 min

CCCC[C@H](NC(=O)[C@@H](NC(=O)[C@]1(C)CCCC=CCCC[C@](C)(NC(=O)[C@H](CCCCN)NC(=O)CNC(=O)[C@H](Cc2ccccc2)NC(=O)[C@H](CCCCN)NC(=O)[C@H](CCCCN)NC(=O)[C@H](C)NC(=O)[C@H](CO)NC(=O)[C@H](Cc2c[nH]cn2)NC(=O)[C@H](CC(C)C)NC(=O)[C@H](Cc2ccccc2)NC(=O)[C@H](CCCCN)NC(=O)CNC(=O)[C@@H](NC(=O)CN)[C@@H](C)CC)C(=O)N[C@@H](Cc2ccccc2)C(=O)N[C@@H](C(C)C)C(=O)NCC(=O)N1)[C@@H](C)CC)C(=O)N[C@@H](CC(N)=O)C(=O)N[C@@H](CO)C(N)=O
retention time (HPLC C18 column): 13.2 min
